Results collected from several papers.
Each numbered part is a random draw from the data of one study; scales do not carry over between parts.

Series 1 — method: universal PBM; molecule type: double-stranded DNA, one strand shown; sample: in vitro; tested at: not given; direction: higher = stronger binding
Target: Sal-like protein 4, full length isoform B (SALL4, Homo sapiens, UniProt Q9UJQ4-2, residues 1-616)
Setting: 8-mer, flanks averaged, mean of replicates
Target sequence (chain): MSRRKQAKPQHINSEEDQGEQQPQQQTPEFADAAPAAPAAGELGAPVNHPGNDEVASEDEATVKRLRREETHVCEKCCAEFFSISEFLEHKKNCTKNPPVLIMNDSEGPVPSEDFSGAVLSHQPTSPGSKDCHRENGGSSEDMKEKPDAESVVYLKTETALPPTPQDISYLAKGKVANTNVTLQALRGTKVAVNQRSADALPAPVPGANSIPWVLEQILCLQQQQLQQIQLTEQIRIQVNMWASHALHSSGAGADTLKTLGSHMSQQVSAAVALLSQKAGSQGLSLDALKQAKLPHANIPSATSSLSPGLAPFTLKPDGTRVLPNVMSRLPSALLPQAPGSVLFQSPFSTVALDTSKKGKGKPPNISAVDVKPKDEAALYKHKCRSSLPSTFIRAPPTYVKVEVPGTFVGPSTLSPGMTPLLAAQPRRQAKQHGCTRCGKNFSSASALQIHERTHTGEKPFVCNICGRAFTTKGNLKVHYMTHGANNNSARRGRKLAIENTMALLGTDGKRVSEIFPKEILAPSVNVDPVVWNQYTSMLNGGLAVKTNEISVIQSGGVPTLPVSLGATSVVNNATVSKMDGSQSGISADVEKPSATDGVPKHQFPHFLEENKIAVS
Oligonucleotide	E-score
ACTAGGCA	-0.058
GCACCTTA	0.00723
ACTGTCCC	-0.205
AGAGCCGA	-0.136
ACGGCCTA	-0.135
CCTCTTAA	0.0646

Series 2 — method: aptamer microarray, sandwich; molecule type: DNA with 2'F-ANA; sample: in vitro; tested at: 200 nM; together with: Cy3 exosite-II aptamer, 400 nM; direction: higher = stronger binding; oligonucleotide: GGTTGGTGTGGTTGG
Target: Prothrombin, mature alpha-thrombin (F2, Homo sapiens, UniProt P00734)
Setting: whole 15-mer aptamer, many near background
Modification	mean fluorescence intensity
2'F-ANA at 1 2 5 6 10 11 14 15	140 a.u.
2'F-ANA at 1 3 4 8 9 12 13	298 a.u.
2'F-ANA at 3 4 7 11 12 15	940 a.u.
2'F-ANA at 1 3 9 11	251 a.u.
2'F-ANA at 1 2 4 5 7 10 11 12 15	62.7 a.u.

Series 3 — method: protein binding microarray; molecule type: double-stranded DNA, one strand shown; sample: in vitro; tested at: not given; reference: not given; direction: higher = stronger binding
Target: Histone acetyltransferase KAT6A, winged helix 2, GST fusion (KAT6A, Homo sapiens, UniProt Q92794, residues 85-181)
Setting: 8-mer, flanks averaged, mean of 2 arrays, mostly near background
Target sequence (chain): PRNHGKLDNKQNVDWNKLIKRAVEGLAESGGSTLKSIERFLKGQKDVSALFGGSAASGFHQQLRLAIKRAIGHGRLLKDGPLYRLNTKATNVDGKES
Oligonucleotide	E-score
CATTGACG	-0.0389
CGCGTCTA	-0.0155
CAGGGCGG	0.198
GACAATCC	0.0352

Further values, each from its own experiment
Molecule	target	test	test system	setting	scale	endpoint	value
PhoQ, residues 284 288 289 292 302 303 NLCILV	PhoP, residues 12 14 15 18 19 LHTVM (Escherichia coli, UniProt P23836)	Sort-seq, item: YFP reporter	E. coli	PhoQ-PhoP variant library, together with: 10 µM Mg2+	reference: high Mg2+ state, higher = stronger signaling	fold induction	15.6

For quick reference, copied from above (series 1):
Oligonucleotide	E-score
ACTAGGCA	-0.058
GCACCTTA	0.00723
